Assay results collected from several papers.
Protocols differ between the studies behind these lines. ± gives the spread as reported.
UniProt P05067, sequence (whole entry, looked up): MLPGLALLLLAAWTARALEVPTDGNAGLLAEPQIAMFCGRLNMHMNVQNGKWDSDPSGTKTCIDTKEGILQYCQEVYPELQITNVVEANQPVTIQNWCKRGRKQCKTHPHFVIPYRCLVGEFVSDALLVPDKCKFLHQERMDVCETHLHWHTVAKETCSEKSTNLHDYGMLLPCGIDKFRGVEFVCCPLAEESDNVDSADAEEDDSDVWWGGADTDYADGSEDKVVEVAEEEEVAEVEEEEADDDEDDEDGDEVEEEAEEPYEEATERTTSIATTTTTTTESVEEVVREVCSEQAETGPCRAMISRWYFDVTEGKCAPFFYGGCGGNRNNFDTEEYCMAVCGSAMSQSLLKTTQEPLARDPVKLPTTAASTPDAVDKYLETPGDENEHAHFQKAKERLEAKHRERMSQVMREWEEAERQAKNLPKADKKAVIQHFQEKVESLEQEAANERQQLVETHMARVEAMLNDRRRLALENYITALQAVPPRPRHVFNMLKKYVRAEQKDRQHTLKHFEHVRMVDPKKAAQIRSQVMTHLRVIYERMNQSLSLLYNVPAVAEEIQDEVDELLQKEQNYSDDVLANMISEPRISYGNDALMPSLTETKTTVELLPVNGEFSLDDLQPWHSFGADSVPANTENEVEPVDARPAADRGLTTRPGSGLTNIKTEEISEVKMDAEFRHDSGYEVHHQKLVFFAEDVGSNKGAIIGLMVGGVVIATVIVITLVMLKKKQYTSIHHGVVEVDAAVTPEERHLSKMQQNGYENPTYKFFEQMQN
UniProt Q7L0J3, sequence (whole entry, looked up): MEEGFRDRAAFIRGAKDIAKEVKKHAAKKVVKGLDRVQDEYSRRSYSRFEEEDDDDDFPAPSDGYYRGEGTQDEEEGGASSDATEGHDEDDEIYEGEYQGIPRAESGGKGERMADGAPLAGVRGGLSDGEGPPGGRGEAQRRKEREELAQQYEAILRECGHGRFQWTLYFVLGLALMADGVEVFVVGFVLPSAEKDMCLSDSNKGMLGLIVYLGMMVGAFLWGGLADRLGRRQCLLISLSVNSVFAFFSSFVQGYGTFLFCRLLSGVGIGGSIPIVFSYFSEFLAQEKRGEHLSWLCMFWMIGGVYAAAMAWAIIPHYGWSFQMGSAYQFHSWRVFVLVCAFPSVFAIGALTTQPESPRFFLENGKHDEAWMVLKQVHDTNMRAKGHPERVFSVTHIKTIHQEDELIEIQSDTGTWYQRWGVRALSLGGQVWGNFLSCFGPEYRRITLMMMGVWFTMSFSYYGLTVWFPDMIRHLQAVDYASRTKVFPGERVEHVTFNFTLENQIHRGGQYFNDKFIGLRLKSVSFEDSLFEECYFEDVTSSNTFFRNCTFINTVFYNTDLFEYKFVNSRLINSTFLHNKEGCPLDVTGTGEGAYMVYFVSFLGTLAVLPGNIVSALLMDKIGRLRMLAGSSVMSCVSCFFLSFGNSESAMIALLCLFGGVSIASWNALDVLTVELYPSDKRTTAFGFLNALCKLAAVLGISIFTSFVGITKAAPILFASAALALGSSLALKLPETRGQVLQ
UniProt Q14145, sequence (whole entry, unmodified, looked up): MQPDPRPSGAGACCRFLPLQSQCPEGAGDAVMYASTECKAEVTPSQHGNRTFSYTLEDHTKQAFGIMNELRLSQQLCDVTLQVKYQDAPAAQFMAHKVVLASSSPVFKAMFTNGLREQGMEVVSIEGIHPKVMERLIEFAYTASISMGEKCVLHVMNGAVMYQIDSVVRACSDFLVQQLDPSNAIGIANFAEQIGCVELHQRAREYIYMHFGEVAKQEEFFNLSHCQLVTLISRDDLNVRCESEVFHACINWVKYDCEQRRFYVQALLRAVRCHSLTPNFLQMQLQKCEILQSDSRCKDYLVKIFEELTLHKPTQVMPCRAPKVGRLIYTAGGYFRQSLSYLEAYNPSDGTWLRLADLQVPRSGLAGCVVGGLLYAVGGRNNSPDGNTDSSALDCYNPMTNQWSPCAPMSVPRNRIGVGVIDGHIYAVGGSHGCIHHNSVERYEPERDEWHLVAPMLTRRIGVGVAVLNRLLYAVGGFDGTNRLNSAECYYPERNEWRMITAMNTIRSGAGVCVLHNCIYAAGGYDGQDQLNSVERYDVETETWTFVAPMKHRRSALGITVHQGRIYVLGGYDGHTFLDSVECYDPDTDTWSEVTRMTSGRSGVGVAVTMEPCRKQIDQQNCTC
UniProt P22736, sequence (whole entry, looked up): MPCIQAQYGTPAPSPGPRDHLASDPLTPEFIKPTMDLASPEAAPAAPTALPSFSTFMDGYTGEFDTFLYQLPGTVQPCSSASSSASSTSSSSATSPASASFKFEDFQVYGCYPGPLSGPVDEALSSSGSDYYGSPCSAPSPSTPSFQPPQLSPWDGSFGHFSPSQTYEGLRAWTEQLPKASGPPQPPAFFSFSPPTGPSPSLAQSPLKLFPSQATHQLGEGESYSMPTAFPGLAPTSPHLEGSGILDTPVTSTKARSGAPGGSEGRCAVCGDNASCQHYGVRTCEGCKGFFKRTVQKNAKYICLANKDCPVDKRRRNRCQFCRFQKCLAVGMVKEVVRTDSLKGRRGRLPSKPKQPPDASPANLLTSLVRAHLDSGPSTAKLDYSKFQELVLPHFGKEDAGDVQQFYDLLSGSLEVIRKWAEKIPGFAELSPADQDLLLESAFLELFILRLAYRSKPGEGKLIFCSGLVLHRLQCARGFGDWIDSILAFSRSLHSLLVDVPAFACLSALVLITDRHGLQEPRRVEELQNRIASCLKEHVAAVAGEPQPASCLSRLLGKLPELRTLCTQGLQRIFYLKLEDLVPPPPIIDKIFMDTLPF
UniProt P19643, sequence (whole entry, looked up): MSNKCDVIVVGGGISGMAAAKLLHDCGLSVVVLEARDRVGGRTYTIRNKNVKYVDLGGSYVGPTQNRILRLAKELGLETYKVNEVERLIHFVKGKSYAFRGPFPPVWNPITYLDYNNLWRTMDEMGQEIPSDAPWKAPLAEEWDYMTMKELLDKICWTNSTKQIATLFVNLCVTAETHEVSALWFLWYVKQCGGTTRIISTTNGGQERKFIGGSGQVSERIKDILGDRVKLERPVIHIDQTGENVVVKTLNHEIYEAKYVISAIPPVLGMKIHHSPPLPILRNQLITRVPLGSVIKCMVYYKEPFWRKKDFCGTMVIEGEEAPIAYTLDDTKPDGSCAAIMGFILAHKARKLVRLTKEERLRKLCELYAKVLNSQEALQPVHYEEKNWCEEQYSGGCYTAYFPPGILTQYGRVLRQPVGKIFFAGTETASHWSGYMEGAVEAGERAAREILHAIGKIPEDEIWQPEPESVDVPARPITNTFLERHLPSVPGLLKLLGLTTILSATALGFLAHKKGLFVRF
UniProt Q9Y3R4, sequence (whole entry, looked up): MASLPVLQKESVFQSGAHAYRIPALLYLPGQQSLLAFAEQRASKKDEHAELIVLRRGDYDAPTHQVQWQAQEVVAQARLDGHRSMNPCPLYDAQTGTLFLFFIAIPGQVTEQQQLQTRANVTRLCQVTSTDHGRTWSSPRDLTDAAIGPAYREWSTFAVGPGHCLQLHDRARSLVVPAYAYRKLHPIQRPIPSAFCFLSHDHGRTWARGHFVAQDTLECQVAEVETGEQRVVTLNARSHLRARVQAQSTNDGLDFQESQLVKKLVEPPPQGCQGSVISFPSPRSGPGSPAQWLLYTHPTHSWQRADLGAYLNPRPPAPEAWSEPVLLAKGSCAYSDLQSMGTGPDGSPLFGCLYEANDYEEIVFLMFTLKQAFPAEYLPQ
UniProt Q9Y294, sequence (whole entry, looked up): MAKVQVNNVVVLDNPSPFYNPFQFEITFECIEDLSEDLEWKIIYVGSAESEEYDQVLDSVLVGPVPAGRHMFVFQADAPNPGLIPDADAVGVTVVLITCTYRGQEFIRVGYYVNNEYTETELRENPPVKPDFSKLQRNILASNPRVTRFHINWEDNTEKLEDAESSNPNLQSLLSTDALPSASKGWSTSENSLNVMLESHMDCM
UniProt Q05097, sequence (whole entry, looked up): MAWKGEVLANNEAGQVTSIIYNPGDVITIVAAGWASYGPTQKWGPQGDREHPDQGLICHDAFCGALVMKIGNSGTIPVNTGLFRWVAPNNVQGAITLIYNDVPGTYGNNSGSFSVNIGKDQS
UniProt O14786, sequence (whole entry, unmodified, looked up): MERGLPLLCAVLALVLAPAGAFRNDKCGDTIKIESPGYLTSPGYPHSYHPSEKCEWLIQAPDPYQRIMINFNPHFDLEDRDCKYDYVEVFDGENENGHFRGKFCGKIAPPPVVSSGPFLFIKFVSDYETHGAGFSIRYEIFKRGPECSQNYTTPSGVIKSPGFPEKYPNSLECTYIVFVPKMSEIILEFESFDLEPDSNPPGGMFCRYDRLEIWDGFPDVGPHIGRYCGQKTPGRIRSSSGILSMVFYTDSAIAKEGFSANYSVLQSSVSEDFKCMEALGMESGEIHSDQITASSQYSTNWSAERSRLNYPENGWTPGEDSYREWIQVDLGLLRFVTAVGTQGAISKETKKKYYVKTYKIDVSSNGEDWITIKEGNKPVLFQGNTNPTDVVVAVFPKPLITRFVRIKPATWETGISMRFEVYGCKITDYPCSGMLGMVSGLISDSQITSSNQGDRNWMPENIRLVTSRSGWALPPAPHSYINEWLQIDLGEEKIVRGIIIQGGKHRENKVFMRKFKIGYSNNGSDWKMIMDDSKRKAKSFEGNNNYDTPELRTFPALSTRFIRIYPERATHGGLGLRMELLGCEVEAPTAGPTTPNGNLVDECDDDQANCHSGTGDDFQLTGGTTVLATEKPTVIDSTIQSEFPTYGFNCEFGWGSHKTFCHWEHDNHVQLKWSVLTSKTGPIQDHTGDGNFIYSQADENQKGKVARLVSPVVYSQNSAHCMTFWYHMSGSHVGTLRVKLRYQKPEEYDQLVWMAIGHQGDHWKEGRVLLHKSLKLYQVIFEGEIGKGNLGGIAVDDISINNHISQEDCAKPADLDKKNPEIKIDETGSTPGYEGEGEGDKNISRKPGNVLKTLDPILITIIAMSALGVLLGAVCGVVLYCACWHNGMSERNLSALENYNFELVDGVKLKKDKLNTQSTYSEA

C#Cc1ccc(O[C@@H]2O[C@H](CO)[C@H](O)[C@H](O)[C@H]2O)cc1  binding stoichiometry (PA-I galactophilic lectin (lecA, Pseudomonas aeruginosa, UniProt Q05097); ITC; concentration not given, 5% DMSO): 0.95 ± 0.01
CC(=O)N[C@H]1NC[C@H](C(=O)O)[C@H](O)[C@@H]1O  released sialic acid (Sialidase-2 (Homo sapiens, UniProt Q9Y3R4); α2,3-sialyllactose hydrolysis; 600 µM, 1 h, pH 4.0, added: α2,3-sialyllactose): 277 µmol
COCCOCCOCCOC(=O)/C(C#N)=C/c1ccc2cc(NCCN3CCOCC3)ccc2c1  emission maximum (Amyloid-beta precursor protein, Aβ42 aggregates (APP, Homo sapiens, UniProt P05067); fluorescence; added: aggregated Abeta42 5 µM): 540 nm
Nc1ncnc2c1ncn2[C@@H]1O[C@@H]2COP(=O)(O)O[C@H]3[C@@H](O)[C@H](n4cnc5c(N)ncnc54)O[C@@H]3COP(=O)(O)O[C@H]2[C@H]1O  2'3'-cGAMP uptake (Reduced folate transporter (SLC19A1, Homo sapiens, UniProt P41440); inhibitor; THP-1; 100 µM, 1 h): inhibited
CC(=O)N[C@@H](CO)C(=O)N[C@@H](C)C(=O)N[C@@H](CCCCN)C(=O)N[C@@H](C)C(=O)N[C@@H](C)C(=O)N[C@@H](CC(=O)O)C(=O)N[C@@H](CC(=O)O)C(=O)N1CCC[C@H]1C(=O)N[C@@H](CCC(=O)O)C(=O)N[C@@H](CC(N)=O)C(=O)NCC(=O)N[C@@H](CCC(=O)O)C(=O)N[C@@H](CCCNC(=N)N)C(=O)N[C@@H](CCC(=O)O)C(=O)N[C@@H](CO)C(=O)N[C@@H](Cc1c[nH]cn1)C(=O)N[C@H](C(=O)N1CCC[C@H]1C(=O)N[C@H](C(=O)N[C@@H](CO)C(N)=O)C(C)C)[C@@H](C)O  ΔG (Kelch-like ECH-associated protein 1, Kelch domain (KEAP1, Homo sapiens, UniProt Q14145); isothermal titration calorimetry; Kelch domain; pH 7, 298.15 K): -8.13 ± 0.04 kcal/mol
CC[C@H](C)[C@H](NC(=O)[C@H](CCCNC(=N)N)NC(=O)[C@H](CCCNC(=N)N)NC(=O)[C@H](C)NC(=O)[C@H](CC(C)C)NC(=O)[C@H](CCCNC(=N)N)NC(=O)[C@H](C)NC(=O)[C@H](Cc1c[nH]c2ccccc12)NC(=O)[C@H](CCCCN)NC(=O)[C@H](CCC(=O)O)NC(=O)[C@H](CCC(=O)O)NC(=O)[C@@H](NC(=O)[C@H](CO)NC(=O)[C@H](C)NC(C)=O)[C@@H](C)O)C(=O)N[C@@H](C)C(=O)NCC(N)=O  binding enthalpy (Histone chaperone ASF1A (Homo sapiens, UniProt Q9Y294); isothermal titration calorimetry; concentration not given, pH 7.5, 20 °C): -11.7 ± 0.4 kcal/mol
[123I]c1ccc2nc(-c3ccc(-n4ccnn4)nc3)cn2c1  SUVR (Amyloid-beta precursor protein, amyloid-beta (APP, Homo sapiens, UniProt P05067); SPECT; Alzheimer's disease patients, Frontal cortex; 150 to 240 min; reference: cerebellum): 1.22 ± 0.32
N=C(N)NCCC[C@@H](N)C(=O)N1CCC[C@@H]1C(=O)N1CCC[C@@H]1C(=O)N[C@H](CCCNC(=N)N)C(=O)N[C@H](CCC(=O)O)C(=O)NCC(=O)N[C@H](CCCNC(=N)N)C(N)=O  binding free energy ΔG (Neuropilin-1 (NRP1, Homo sapiens, UniProt O14786); SPR): -9.61 kcal/mol
[3H]C([3H])([3H])c1cnccc1CN1C[C@@H](c2cc(F)c(F)c(F)c2)CC1=O  specific binding ratio (Synaptic vesicle glycoprotein 2A (SV2A, Homo sapiens, UniProt Q7L0J3); radioligand binding; human Alzheimer disease, frontal cortex; reference: P2 fraction over homogenate): ~38 fold
COc1ccc(C(=O)/C=C/c2ccc(O)cc2)c(O)c1CC=C(C)C  MAO-B inhibitory potency (Amine oxidase [flavin-containing] B (Maob, Rattus norvegicus, UniProt P19643); inhibitor; concentration not given, added: benzylamine; reference: xanthoangelol): ~15 fold
CC1=C(O)C(=O)C=C2C1=CC=C1[C@@]2(C)CC[C@@]2(C)[C@@H]3C[C@](C)(C(=O)NCCOCCOCCOCCOCC(=O)N[C@H](C(=O)N4C[C@H](O)C[C@H]4C(=O)N[C@@H](C)c4ccc(-c5scnc5C)cc4)C(C)(C)C)CC[C@]3(C)CC[C@]12C  protein level (Nuclear receptor subfamily 4 group A member 1 (NR4A1, Homo sapiens, UniProt P22736); protein degradation, degrader, immunoblotting; WM164 melanoma cells; concentration not given, 16 h): decreased

Excerpt of the above:
CC1=C(O)C(=O)C=C2C1=CC=C1[C@@]2(C)CC[C@@]2(C)[C@@H]3C[C@](C)(C(=O)NCCOCCOCCOCCOCC(=O)N[C@H](C(=O)N4C[C@H](O)C[C@H]4C(=O)N[C@@H](C)c4ccc(-c5scnc5C)cc4)C(C)(C)C)CC[C@]3(C)CC[C@]12C  protein level (Nuclear receptor subfamily 4 group A member 1 (NR4A1, Homo sapiens, UniProt P22736); protein degradation, degrader, immunoblotting; WM164 melanoma cells; concentration not given, 16 h): decreased
[3H]C([3H])([3H])c1cnccc1CN1C[C@@H](c2cc(F)c(F)c(F)c2)CC1=O  specific binding ratio (Synaptic vesicle glycoprotein 2A (SV2A, Homo sapiens, UniProt Q7L0J3); radioligand binding; human Alzheimer disease, frontal cortex; reference: P2 fraction over homogenate): ~38 fold
